Results pooled from the literature.
Protocols differ between the studies behind these lines. Values joined by “and” are separate records of one study, mostly repeats; a detail may differ. Numbers after ± are the reported error.
Sequence of UniProt P10408 (whole entry, looked up): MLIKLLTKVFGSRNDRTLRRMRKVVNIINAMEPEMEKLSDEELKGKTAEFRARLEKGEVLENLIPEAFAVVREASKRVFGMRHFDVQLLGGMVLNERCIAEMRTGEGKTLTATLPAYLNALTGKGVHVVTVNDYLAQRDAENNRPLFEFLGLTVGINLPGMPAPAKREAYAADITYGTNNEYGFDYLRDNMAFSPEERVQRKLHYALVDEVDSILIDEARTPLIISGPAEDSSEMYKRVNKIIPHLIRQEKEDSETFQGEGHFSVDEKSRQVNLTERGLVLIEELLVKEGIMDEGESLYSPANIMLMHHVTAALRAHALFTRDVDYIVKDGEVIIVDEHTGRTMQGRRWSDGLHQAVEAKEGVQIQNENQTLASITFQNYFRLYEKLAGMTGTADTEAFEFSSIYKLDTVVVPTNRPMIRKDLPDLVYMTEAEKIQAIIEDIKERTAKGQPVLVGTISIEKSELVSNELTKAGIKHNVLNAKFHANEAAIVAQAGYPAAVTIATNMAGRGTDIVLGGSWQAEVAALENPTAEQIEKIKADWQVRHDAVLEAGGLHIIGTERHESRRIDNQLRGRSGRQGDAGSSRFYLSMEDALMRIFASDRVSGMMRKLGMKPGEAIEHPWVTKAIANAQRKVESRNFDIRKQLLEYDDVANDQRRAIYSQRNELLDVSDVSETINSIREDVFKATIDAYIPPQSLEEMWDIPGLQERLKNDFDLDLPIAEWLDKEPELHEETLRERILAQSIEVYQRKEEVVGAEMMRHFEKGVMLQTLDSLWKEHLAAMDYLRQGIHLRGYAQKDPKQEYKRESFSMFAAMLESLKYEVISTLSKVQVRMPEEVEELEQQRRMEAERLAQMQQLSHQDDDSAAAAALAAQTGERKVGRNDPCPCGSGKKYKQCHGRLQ
Sequence of UniProt P19784 (whole entry, looked up): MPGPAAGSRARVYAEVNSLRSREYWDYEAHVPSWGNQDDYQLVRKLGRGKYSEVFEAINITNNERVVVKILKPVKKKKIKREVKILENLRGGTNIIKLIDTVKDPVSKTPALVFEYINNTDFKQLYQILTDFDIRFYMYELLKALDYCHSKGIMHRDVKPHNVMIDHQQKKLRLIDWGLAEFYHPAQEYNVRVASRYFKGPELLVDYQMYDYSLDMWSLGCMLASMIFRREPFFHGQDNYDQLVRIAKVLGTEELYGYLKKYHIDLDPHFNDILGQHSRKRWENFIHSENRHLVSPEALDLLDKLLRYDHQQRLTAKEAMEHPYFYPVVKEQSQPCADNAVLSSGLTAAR
Sequence of UniProt Q87P32 (whole entry, looked up): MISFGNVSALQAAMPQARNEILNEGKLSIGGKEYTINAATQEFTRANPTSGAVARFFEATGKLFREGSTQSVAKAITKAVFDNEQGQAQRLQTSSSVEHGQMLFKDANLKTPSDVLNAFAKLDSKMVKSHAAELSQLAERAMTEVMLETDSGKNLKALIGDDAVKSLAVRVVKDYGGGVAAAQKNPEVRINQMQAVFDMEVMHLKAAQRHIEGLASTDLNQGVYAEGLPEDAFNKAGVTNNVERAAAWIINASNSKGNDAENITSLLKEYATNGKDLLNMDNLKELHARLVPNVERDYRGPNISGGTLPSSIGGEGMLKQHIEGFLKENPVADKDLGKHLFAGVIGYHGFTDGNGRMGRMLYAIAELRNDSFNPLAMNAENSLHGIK
Sequence of UniProt Q99436 (whole entry, looked up): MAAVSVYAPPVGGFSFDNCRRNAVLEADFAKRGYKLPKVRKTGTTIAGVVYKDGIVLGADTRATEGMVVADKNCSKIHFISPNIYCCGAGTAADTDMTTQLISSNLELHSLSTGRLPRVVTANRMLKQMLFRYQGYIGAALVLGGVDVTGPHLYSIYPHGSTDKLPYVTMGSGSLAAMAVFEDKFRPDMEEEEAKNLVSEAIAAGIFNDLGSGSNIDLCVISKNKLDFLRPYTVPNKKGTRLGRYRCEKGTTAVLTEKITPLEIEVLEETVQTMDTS
Sequence of UniProt P81908 (whole entry, looked up): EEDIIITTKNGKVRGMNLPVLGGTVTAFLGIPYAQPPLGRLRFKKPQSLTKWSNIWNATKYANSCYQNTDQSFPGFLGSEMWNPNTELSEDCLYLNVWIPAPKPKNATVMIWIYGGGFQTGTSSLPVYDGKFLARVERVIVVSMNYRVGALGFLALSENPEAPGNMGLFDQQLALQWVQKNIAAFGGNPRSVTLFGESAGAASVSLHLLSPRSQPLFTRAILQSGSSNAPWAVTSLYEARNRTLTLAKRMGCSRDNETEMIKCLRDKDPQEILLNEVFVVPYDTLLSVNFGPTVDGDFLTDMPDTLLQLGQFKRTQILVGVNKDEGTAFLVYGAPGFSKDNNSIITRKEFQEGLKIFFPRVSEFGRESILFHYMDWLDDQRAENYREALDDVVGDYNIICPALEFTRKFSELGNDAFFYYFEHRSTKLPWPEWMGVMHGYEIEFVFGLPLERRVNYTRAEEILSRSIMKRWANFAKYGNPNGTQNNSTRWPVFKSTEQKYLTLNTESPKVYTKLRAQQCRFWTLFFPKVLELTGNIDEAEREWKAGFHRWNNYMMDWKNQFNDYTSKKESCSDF
Sequence of UniProt P06873 (whole entry, looked up): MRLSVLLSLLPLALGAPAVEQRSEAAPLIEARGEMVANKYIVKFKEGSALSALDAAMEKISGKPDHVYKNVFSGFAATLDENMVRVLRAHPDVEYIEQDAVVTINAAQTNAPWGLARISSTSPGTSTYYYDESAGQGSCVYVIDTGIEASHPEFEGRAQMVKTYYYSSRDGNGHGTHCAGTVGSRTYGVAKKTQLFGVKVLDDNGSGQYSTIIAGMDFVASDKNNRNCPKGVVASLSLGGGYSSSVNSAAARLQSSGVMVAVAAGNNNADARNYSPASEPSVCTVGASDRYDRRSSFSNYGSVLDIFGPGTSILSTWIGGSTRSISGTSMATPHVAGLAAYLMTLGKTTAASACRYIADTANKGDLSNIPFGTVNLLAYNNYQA
Sequence of UniProt Q388M1 (whole entry, looked up): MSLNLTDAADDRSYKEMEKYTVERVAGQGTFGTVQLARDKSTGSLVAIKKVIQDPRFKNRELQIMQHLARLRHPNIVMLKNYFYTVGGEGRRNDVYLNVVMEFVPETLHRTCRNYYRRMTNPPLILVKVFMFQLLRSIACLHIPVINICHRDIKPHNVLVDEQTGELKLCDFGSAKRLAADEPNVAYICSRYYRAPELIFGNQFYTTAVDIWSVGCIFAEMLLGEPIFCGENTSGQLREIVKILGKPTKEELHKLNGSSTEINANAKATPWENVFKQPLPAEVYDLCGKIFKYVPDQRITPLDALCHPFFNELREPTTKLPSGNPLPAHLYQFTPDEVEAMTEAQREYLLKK
Sequence of UniProt Q7RTT9 (whole entry, unmodified, looked up): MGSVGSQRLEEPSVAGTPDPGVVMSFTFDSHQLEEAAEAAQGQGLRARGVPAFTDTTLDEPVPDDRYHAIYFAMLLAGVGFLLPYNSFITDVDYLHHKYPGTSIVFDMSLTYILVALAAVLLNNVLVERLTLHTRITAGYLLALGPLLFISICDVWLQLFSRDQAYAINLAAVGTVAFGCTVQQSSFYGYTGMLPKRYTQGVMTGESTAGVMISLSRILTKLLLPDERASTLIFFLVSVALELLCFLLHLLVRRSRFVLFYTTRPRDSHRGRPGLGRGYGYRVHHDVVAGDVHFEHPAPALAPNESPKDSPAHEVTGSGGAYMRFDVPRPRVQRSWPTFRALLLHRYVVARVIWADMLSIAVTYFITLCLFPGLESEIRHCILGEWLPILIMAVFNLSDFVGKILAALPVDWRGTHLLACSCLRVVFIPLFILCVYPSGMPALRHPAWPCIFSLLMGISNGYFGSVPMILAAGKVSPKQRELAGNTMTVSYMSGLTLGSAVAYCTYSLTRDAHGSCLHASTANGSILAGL
Sequence of UniProt Q16678 (whole entry, looked up): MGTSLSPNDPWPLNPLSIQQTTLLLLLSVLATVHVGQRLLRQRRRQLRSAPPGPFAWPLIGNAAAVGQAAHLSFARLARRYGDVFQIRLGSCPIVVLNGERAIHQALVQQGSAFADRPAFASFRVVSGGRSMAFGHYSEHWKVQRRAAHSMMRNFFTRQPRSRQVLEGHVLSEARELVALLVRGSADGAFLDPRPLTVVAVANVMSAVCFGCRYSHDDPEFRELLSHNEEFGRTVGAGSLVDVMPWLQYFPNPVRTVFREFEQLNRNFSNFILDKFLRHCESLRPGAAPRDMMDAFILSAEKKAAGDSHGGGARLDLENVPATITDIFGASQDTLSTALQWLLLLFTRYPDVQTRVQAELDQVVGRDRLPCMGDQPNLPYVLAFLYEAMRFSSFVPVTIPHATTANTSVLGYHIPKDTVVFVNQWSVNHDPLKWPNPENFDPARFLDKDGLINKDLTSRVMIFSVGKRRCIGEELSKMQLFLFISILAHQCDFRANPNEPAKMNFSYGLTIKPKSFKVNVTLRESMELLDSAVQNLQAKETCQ
Sequence of UniProt P39135 (whole entry, looked up): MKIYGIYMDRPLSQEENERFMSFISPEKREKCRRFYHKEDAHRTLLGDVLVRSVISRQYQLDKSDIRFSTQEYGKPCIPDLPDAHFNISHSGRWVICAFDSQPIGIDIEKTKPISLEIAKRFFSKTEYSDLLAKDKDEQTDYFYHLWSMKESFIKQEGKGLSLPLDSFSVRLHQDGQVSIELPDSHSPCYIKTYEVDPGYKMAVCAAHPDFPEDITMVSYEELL
Sequence of UniProt P28072 (whole entry, looked up): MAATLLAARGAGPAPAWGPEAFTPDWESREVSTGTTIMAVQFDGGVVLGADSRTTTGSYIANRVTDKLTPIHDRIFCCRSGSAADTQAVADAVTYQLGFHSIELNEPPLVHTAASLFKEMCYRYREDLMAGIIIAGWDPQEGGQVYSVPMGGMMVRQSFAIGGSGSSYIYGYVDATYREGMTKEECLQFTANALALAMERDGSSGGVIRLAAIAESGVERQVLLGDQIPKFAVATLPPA

SMILES = O=[N+]([O-])c1ccc(CSc2ncnc3c2ncn3[C@@H]2O[C@H](CO)[C@@H](O)[C@H]2O)cc1; target = Equilibrative nucleoside transporter 4 (SLC29A4, Homo sapiens, UniProt Q7RTT9, I89M); assay = MPP+ uptake, inhibitor; test system = MDCK expressing PMAT I89M; setting = 1 min, 37 °C, added: [3H]MPP+ 1 µM; IC50 = 11500 ± 5100 nM
SMILES = c1ccc2c(c1)c1cccc3ccc4cccc2c4c31; target = Cytochrome P450 1B1 (CYP1B1, Homo sapiens, UniProt Q16678); assay = enzyme activity, inhibitor; setting = 5 s, pH 7.4; IC50 = < 50 nM
SMILES = N=C(N)NCCC[C@H](NC(=O)CN)C(=O)N[C@@H](CCCCN)C(=O)N[C@@H](CCCCN)C(=O)N[C@@H](CCCNC(=N)N)C(=O)N[C@@H](CCCNC(=N)N)C(=O)N[C@@H](CCC(N)=O)C(=O)N[C@@H](CCCNC(=N)N)C(=O)N[C@@H](CCCNC(=N)N)C(=O)N[C@@H](CCCNC(=N)N)C(=O)N1CCC[C@H]1C(=O)N[C@@H](CO)C(N)=O; target = human 20S proteasome; assay = chymotrypsin-like activity, inhibitor; setting = added: SDS 0.005%; IC50 = 160 nM
SMILES = CN(Cc1ccc2c(c1)C[C@H](CN=C(N)N)[C@H]2NC(=O)C(=O)Nc1ccc(Cl)c(F)c1)C(=N)N; target = HIV-1 BG505 SOSIP.664; assay = inhibitor, competition ELISA; setting = 10% DMSO; IC50 = 2020 ± 780 nM
SMILES = CCC(=O)Nc1cc(Nc2cc(NC3CC3)n3ncc(C#N)c3n2)ccc1N(C)CCN; target = Casein kinase II subunit alpha' (CSNK2A2, Homo sapiens, UniProt P19784); assay = target engagement in cells, BRET; IC50 = 2 nM
SMILES = CN1C(=O)[C@]23SS[C@@]1(C)C(=O)N2[C@H]1Nc2ccccc2[C@@]1([C@@]12c4ccccc4N[C@@H]1N1C(=O)[C@@]4(C)SS[C@]1(C(=O)N4C)[C@H]2O)[C@@H]3O; target = Histone-lysine N-methyltransferase, H3 lysine-79 specific (DOT1L, Homo sapiens, UniProt Q8TEK3); assay = methyltransferase activity, inhibitor; setting = added: 1 µM [3H]SAM; IC50 = > 10000 nM
SMILES = CC(C)c1ccc2c(c1)c(SC(C)(C)C)c(CC(C)(C)C(=O)O)n2Cc1ccc(Cl)cc1; target = Protein adenylyltransferase VopS (vopS, Vibrio parahaemolyticus serotype O3:K6, UniProt Q87P32); assay = AMPylation activity, inhibitor, fluorescence polarisation; setting = 3 h, added: Cdc42 Q61L 5 µM, Fl-ATP 250 nM; IC50 = 50000 nM
SMILES = O=C(C=Cc1ccc2ccccc2n1)c1cc(Cl)ccc1O; target = Replicase polyprotein 1ab, main protease (Feline coronavirus, UniProt Q98VG9); assay = enzyme activity, inhibitor, FRET; IC50 = 25900 nM
SMILES = CC[C@H](C)[C@H](NC(=O)[C@H](C)N)C(=O)N[C@@H](CCCNC(=N)N)C(=O)N[C@@H](CCC(N)=O)C(=O)N[C@H](C(=O)N[C@@H](Cc1c[nH]cn1)C(=O)N[C@@H](CC(N)=O)C(=O)N[C@H](C(=O)N[C@@H](Cc1ccccc1)C(=O)N[C@@H](Cc1ccccc1)C(=O)N[C@@H](CC(N)=O)C(=O)N[C@@H](Cc1ccccc1)C(=O)N[C@@H](Cc1ccccc1)C(=O)N[C@@H](CCCCN)C(=O)N[C@@H](CCCNC(=N)N)C(=O)N[C@@H](CCCNC(=N)N)C(=O)O)[C@@H](C)CC)[C@@H](C)O; target = histidine kinase ComD (Streptococcus pneumoniae serotype 4, UniProt A0A0H2US84); assay = reporter gene, antagonist; test system = Streptococcus pneumoniae, TIGR4 comX::lacZ; setting = 30 min, 37 °C, added: CSP2 250 nM; IC50 = > 10000 nM
SMILES = CSc1nc(Cl)cc(Sc2nnc(-c3cc(C(F)(F)F)cc(C(F)(F)F)c3)[nH]2)n1; target = Protein translocase subunit SecA (secA, Escherichia coli, UniProt P10408); assay = protein translocation, inhibitor; test system = 773 inverted membranes; setting = added: proOmpA; IC50 = 1500 to 2000 nM and 1500 nM
SMILES = N#Cc1cccc(OC(=O)NCCCCCn2ccc3ccc(F)cc32)c1; target = Cholinesterase (BCHE, Equus caballus, UniProt P81908); assay = enzyme activity, inhibitor, HPLC; IC50 = 380 nM
SMILES = C/C=C1\NC(=O)C(NC(=O)[C@H](CC[S+](C)[O-])NC(=O)[C@@H](NC(=O)CCC)[C@@H](C)CC)C(C)OC(=O)[C@H](C(C)C)NC(=O)[C@H](Cc2ccc(O)cc2)N(C)C(=O)[C@H](Cc2ccccc2)N2C(=O)[C@H](CCC2O)NC1=O (some centres unmarked); target = Proteinase K (PROK, Engyodontium album, UniProt P06873); assay = enzyme activity, inhibitor, fluorescence; setting = pH 7.4; IC50 = 216 nM
SMILES = COc1ccc(CNC(=O)Nc2ncc([N+](=O)[O-])s2)cc1; target = GSK3, short isoform (Trypanosoma brucei, UniProt Q388M1); assay = enzyme activity, inhibitor; setting = 90 min, 30 °C, added: ATP 2 µM; IC50 = 4300 nM
SMILES = CCCCOc1c(Br)cc(C(c2c(O)c3ccccc3oc2=O)c2c(O)c3ccccc3oc2=O)cc1Br; target = Alpha-glucosidase MAL12 (MAL12, Saccharomyces cerevisiae S288c, UniProt P53341); assay = enzyme activity, inhibitor, absorbance; setting = pH 6.9; IC50 = 620 nM
SMILES = CC(C)(COP(=O)(O)OP(=O)(O)OC[C@H]1O[C@@H](n2cnc3c(N)ncnc32)[C@H](O)[C@@H]1OP(=O)(O)O)[C@@H](O)C(=O)NCCC(=O)NCCS; target = sfp (Bacillus subtilis, UniProt P39135); IC50 = 4200 nM
SMILES = C[C@@]12OC(=O)[C@]1([C@@H](O)[C@@H]1C=CCCC1)NC(=O)[C@@H]2CCCl; target = PSMB6/PSMB7 (Homo sapiens, UniProt P28072+Q99436); assay = enzyme activity; IC50 = ~300 nM
SMILES = COc1ccc(NC(=O)N2CCCCN3[C@H](CN)[C@H](c4ccc(C#Cc5ccccc5)cc4)[C@@H]3C2)cc1; target = Phenylalanine--tRNA ligase alpha subunit (Plasmodium falciparum, UniProt Q8I246, L550V); assay = enzyme activity, inhibitor; IC50 = 1300 nM

Excerpt of the above:
SMILES = CC[C@H](C)[C@H](NC(=O)[C@H](C)N)C(=O)N[C@@H](CCCNC(=N)N)C(=O)N[C@@H](CCC(N)=O)C(=O)N[C@H](C(=O)N[C@@H](Cc1c[nH]cn1)C(=O)N[C@@H](CC(N)=O)C(=O)N[C@H](C(=O)N[C@@H](Cc1ccccc1)C(=O)N[C@@H](Cc1ccccc1)C(=O)N[C@@H](CC(N)=O)C(=O)N[C@@H](Cc1ccccc1)C(=O)N[C@@H](Cc1ccccc1)C(=O)N[C@@H](CCCCN)C(=O)N[C@@H](CCCNC(=N)N)C(=O)N[C@@H](CCCNC(=N)N)C(=O)O)[C@@H](C)CC)[C@@H](C)O; target = histidine kinase ComD (Streptococcus pneumoniae serotype 4, UniProt A0A0H2US84); assay = reporter gene, antagonist; test system = Streptococcus pneumoniae, TIGR4 comX::lacZ; setting = 30 min, 37 °C, added: CSP2 250 nM; IC50 = > 10000 nM
SMILES = CCC(=O)Nc1cc(Nc2cc(NC3CC3)n3ncc(C#N)c3n2)ccc1N(C)CCN; target = Casein kinase II subunit alpha' (CSNK2A2, Homo sapiens, UniProt P19784); assay = target engagement in cells, BRET; IC50 = 2 nM
